Experimental data from different studies.
Values joined by “and” are separate records of one study, mostly repeats; a detail may differ. ± gives the spread as reported.

| Molecule | test | test system | setting | how to read | quantity | value |
| --- | --- | --- | --- | --- | --- | --- |
| O=S(=O)([O-])[O-].[O]=[V+2] | refers to: total vanadium | human, serum | oral, 25 mg V/day as VOSO4, 6 weeks | – | steady-state concentration | 16.9 ng/mL and 13.9 ng/mL |
| CSCC[C@@H]1NC(=O)[C@H](CC(=O)O)NC(=O)CNC(=O)[C@H](CCCNC(=N)N)NC(=O)[C@H](C)NC(=O)[C@H](CCC(=O)O)NC(=O)[C@H](CCCNC(=N)N)NC(=O)[C@@H]2CSSC[C@@H]3NC(=O)[C@H](CO)NC(=O)[C@H]([C@@H](C)O)NC(=O)[C@@H]4CCCN4C(=O)[C@H](C)NC(=O)[C@H](Cc4c[nH]c5ccccc45)NC(=O)[C@H](CC(=O)O)NC(=O)CNC(=O)[C@H](CCCNC(=N)N)NC(=O)CNC(=O)[C@H](CCC(N)=O)NC(=O)[C@@H]4CCCN4C(=O)[C@@H](NC(=O)CNC(=O)C(C)F)CSSC[C@H](NC(=O)CNC(=O)[C@H](C)NC(=O)[C@H](CC(C)C)NC(=O)[C@H](CSSC[C@@H](C(=O)NCC(N)=O)NC(=O)[C@H]([C@@H](C)O)NC(=O)[C@H](CCCNC(=N)N)NC(=O)[C@@H]4CCCN4C1=O)NC(=O)[C@H](CC(=O)O)NC(=O)[C@H](CO)NC(=O)[C@H](CC(=O)O)NC(=O)[C@H](CCC(N)=O)NC(=O)[C@H](CO)NC3=O)C(=O)N[C@@H](C(C)C)C(=O)N2 (stereo partly drawn) [fluorine-18 labelled] | – | nude mouse, U-87 MG xenograft, skin | intravenous, 2.5 h, together with: cyclo(RGDyK) co-injected | – | tissue uptake | 0.27 ± 0.01 %ID/g |
| CC(C)C[C@H](NC(=O)[C@H](CCC(=O)O)NC(=O)[C@H](CCC(=O)O)NC(=O)[C@H](CC(=O)O)NC(=O)[C@H](CCC(=O)O)NC(=O)[C@H](CCC(=O)O)NC(=O)[C@H](CCC(=O)O)NC(=O)[C@@H](N)CC(=O)O)C(=O)O | – | rat, plasma | intravenous, 11.0 mg/kg, 90 min | – | concentration | 166 ng/mL |
| [123I]c1cncc(OC[C@@H]2CCN2)c1 | SPECT | human, cerebellum | intravenous bolus, 2.1 mCi | baseline: tissue over plasma | tissue/plasma ratio | 13.6 |
| Cc1sc2c(c1C)C(c1ccc(Cl)cc1)=N[C@@H](CC(=O)OC(C)(C)C)c1nnc(C)n1-2 | LC-MS | Ringer's solution | 50 ng/mL, time not given, plastic vessel, plastic vial | – | recovery vs nominal | 0.53% and 0.65% |
| ClC(Cl)(Cl)Cl | – | Sprague-Dawley rat, male, liver | oral, 50 mg/kg, 6 h, single low dose | direction not given | hepatocyte vacuolization score | 0 |
| CC1(C)S[C@@H]2[C@H](NC(=O)[C@@H](C(=O)O)c3ccsc3)C(=O)N2[C@H]1C(=O)O | – | rat plasma | 8000 ng/mL, -20 °C to room temperature, three freeze-thaw cycles | – | measured concentration | 7960 ± 95 ng/mL |
| O=c1[nH]c(Cc2ccccn2)nc2c1cnn2C1CCOCC1 | – | healthy men, extensive metabolizers, plasma | oral, 10 mg single dose, tablet, median | – | Tmax | 30 min |
| CC(C)c1nc(CN(C)C(=O)N[C@H](C(=O)N[C@@H](Cc2ccccc2)C[C@H](O)[C@H](Cc2ccccc2)NC(=O)OCc2cncs2)C(C)C)cs1 | – | healthy human volunteers, plasma | oral, dose not given, alone, escitalopram interaction study | – | AUC(0-24) | 6780 ng·h/mL |
| CN[C@@](C)(C[18F])C(=O)O | – | SCID mouse SK-OV-3 xenograft, pancreas | 120 min, post injection | – | tissue uptake | 14 ± 3.6 %ID/g |
| FFEE (N-dodecyl chain) | TEM | peptide, DPBS | 24 h aging | – | nanofibre diameter | 8.5 ± 0.9 nm |
| Cc1ccc(Nc2nccc(N(C)c3ccc4c(C)n(C)nc4c3)n2)cc1S(N)(=O)=O | – | patients without gastric acid suppression, plasma | oral, 600 mg once daily, 24 h, with food, first steady state, geometric mean | – | Cmin | 33500 ng/mL |

Some of these lines once more:
| Molecule | test | test system | setting | how to read | quantity | value |
| --- | --- | --- | --- | --- | --- | --- |
| CC1(C)S[C@@H]2[C@H](NC(=O)[C@@H](C(=O)O)c3ccsc3)C(=O)N2[C@H]1C(=O)O | – | rat plasma | 8000 ng/mL, -20 °C to room temperature, three freeze-thaw cycles | – | measured concentration | 7960 ± 95 ng/mL |
